# Assay results of several laboratories.
# Every numbered part comes from another study and shows a few of its results, in no order. Changes are numbered by the printed parent chain.

# Study 1 — method: RNA Bind-n-Seq; molecule type: RNA; sample: in vitro; tested at: 100 nM; baseline: input RNA pool; direction: higher = stronger binding
# Target: RING finger protein unkempt homolog, zinc fingers 1-6, SBP tag (UNK, Homo sapiens, UniProt Q9C0B0, residues 30-357)
# UniProt Q9C0B0, sequence (30-357, looked up): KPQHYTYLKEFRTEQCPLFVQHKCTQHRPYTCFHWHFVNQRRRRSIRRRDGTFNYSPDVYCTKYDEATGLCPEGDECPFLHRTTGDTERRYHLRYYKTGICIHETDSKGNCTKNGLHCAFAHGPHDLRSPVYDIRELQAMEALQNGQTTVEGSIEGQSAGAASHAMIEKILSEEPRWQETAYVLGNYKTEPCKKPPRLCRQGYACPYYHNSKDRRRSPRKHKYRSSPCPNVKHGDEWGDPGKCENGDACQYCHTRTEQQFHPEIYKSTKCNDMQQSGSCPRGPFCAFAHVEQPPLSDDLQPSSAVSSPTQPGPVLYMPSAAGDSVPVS
# Setting: RNA with constant flanks, vertebrate orthologous sites, ends assumed
# Shared flanks, not repeated: GGGAGUUCUACAGUCCGACGAUC … CAACAGAGGAUUGAGCAUCA
Strand,bound/input enrichment
ACAUGCUCUCUGCAGGAAGCUGCUAGCUGCUUAGCAUCCAUUUGAUUAGUGAUAUUGAGAAGAAAGGUUUGUGGUGGUGUUUUUUUUUUUUUUUUAAGAUAUUGAGACUUAAUUAACUAA,2.06 ratio
AGCAACUCUUACAGUCAGUCUUAGGUGUUACCAAGAACAGAUCUCAAUUGUAAGAGUUGUCAGCACAGCUUUUCUUUUUUCUUUUUGUUUUUGUUAUUGUUUUUUUUUUCUUUUUUUAAA,2.03 ratio
UUUUUGUUAACACGUGACACUGUGUAUUGAGGAUCUUCUGAGGGAGGAGGAAGGAUGCUCUAGCAGUGGUGCCUGGGUUCUUGGCCUCCAGUGCCCCACCACCCUCACCACCCCACCUGG,0.41 ratio
GUGACUUUGGAUGCCCGCAGAUACAGGCUGCGUUGAGUGCUAGGUUCCGUGUUUGCCAAGUUUGUUCUCUCUUUCCGCACCUGAGGCGUCUACCGCAAACAUGCUCCGCCAGAUCAUCAG,0.278 ratio
AAAUAUACUUCAUGCCAUGGACCCCAUAUCGCACCGAUACUUUGAUAGAAUAUGCUUCCUUAGAGGACUUCCAAAACGGACGCCAGCAAACAACAUAUAAACUCCCAAAUCGAGUGGACG,1.12 ratio
AAAUUUAUUUCAUGCCAUGGACCCCAUAUCGUACGGACACCUUGAUAGAAUAUGCUUCUUUGGAGGACUUCCAAAACAGCCGCCAAACGACAACAUAUAAACUCCCCAAUCGAGUGGAUG,0.724 ratio
GUGACUUUGGGCGUCCGCACAGCCUGGGGAGGGUGACUGUGUAGUGUAGUCCCGGCAGGUUAGCUUUCCUUCUUUGGGUUGUAGGCCUGUGCUGCAAACAUGAUCCGCCAGAUCAUCGGU,0.455 ratio
AACUGACUGGUUUAAGAUUAUUUAGAUAAGAAGUUAUUACUGUAUGUGUGUUUUCAAAAUUGACUAUUUUUUUAAUCCAUCUUGCAAAUAUCGGCUGUGUGUGGCGGUUUCUUAACAUGU,0.812 ratio
AUUCAAACCUGUGGUACCCUGGCCUCAUGUUGAAGGAGUAGAAGUGGACUUAGAAUCUAUUAGAAGAAAACACAAGGCCAAAAAUGAACAAGAGCACCAUGCUGGAGGAGAGAACCAGAG,0.558 ratio
GUAGUUUGUUUCUAAUUUCAAGCAAAAAAUCUUAUUGUACUUGAAUGUGUCCUGUUUUGUUAGCACACCUAGACUUGCUGUAACUGUACUCAUGUCCCAGUAUGUACGUUCUUUCUAUGA,0.802 ratio
GUUGUGACCCAUUUAACAUCCACAAAAAACUAGCCAAAAAGAAUUUGCAUGUAAUUGACUUAGAUGAUGCCACUUUUCUGAGUGCGAAAUUUGGUAGACAGCUUGUGCCCGGUUGGAAGC,1.39 ratio

# Study 2 — method: RNA Bind-n-Seq; molecule type: RNA; sample: in vitro; tested at: 365 nM; baseline: no-protein control; direction: higher = stronger binding
# Target: RNA binding protein fox-1 homolog 2, RRM domain, GST-SBP tag (RBFOX2, Homo sapiens, UniProt O43251-10, residues 100-194)
# Setting: natural RNA segment, single round, ends assumed
# Shared flanks, not repeated: GGGAGUUCUACAGUCCGACGAUC … UGGAAUUCUCGGGUGCCAA
# Residues (chain): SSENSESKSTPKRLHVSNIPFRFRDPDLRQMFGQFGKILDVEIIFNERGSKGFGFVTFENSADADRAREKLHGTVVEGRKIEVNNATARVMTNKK
Strand,RBNS enrichment (R)
CACUGACCAUAUGAGGAGCUGCAGAAAUCUGUACAAACUCAACAGAGGCCACCUAGUCACUGGUCCACAUAACCCUUGACCCCUUCUUCUUCAUAGAGGAAACAAUGUGC,0.219
GUCUGGCUUUGAAAGAUUUCAUUGUUGGUAGAAAUAACAGGUUGAGAAAGAGGGAGUUAGCAUCACCUAAAACCUGCACGUGAACAAGGGUUGACAUGAUACACUAUGGC,1.33
CCAGAGAAGCGCUGUUGCCCGCCCUCCACCCACUAGGUGAACAGCAGGAUGCCCUGUUGGGGGCUUCAGGUCUCUGUGGGUGGGAAUGCAAGUGAACUUGGGAGGGGGCA,0.752
CUAGCUUUGACAUCAUCUUGGGGGUUAGGCCAGAGGCUGGGAAGACUGGGUGGACUUUCUCAAUUGCUCUGCCAGGAGGGAACAAGCCCAGAGGCUGAAGCUUCCCAGUA,0.567
GUUCAGUCUCAUCUAACCUUCCAAUGUCUGAUGUUCCUGCCAAAUUCCUGCCUGAUUCUGGGUCCGUCCUGACCUCCAAAGGUCAGCUUGGUGCUUGAGGUCUCCCUGCU,0.339
ACGGAUAGGCUCAGUUAGUCAGGAAUGUUUACACCUCAGUUAACUUCAGUGAUUGACUUAAAGACUGGGAGGUAUAUUGCCUGUGAGAGAAAUGUCUUUUCAUGAAUCCU,0.487
UGACUCAAGAAAGUACAAGUAAACUAUACACCUUUUUUUCAUAAGUUUUAGGAACUGUAGUAAUGUGGCUUAGAAAGUAUAAUGGCCUAAAUGUUUUCAAAAUGUAAGUU,1.37
UUUCUUUUUUGGGUUUCUUUCUAGGAAAAUGAGAAGUGCAUGCAAGGGGCAGGAGAUGACCCUCCCCUAGGCUUUCAGCUUCAGGCAGCUUCUUCACAGCCUGUUCAGCC,13.7
CCUGACGGGCAGCUGAGGAUUGCAGAGCCUGUCUGCCUUACGGCCAGUCGGACAGACGUCCCGCCACCCACCACCCCUCACAGGACGUCCGCUCAGCACACGCCUUGUUA,0.616
UUGAUUCCAUCCUGAGAAUUCAUGUUUAUAAUUAAAUGUGUGUUAAAUAUGCAAGCAUAUCACAAAUGUUCCUUGUCCUUUCAAAGUGCAUUUGUUCAUCAAGAUCAAUA,0.406
UAAUGUGUAAUUAAAGUGAGGAGAAAUUAAAUACUCUGAGGGCGUUUUAUAUAAUAAAUUCGUGAAGAAUGUGUGCUCUUCAGUUCUCAAGUUUUAUUAUUAUGGUAUUU,2.34
AGUAUACAGACUACUUUAAAGAUUUCCAAAUCCCCUAAUUUACCCCACAACAGCAUGUAAUUUUAGCCAAGAUAUGUCCUGUUACUAAGUAUCUCCCAAUGCUUUAGUAA,11.2

# Study 3 — method: DHFR PCA, deep sequencing; sample: yeast; added: (+)-ABA 58 µM; baseline: wild-type fitted maximum; direction: higher = stronger binding
# Target: ABI1, truncated, D143A, DHFR fusion (Arabidopsis thaliana)
# Setting: methotrexate growth selection, single substitutions
# Starting sequence: PYL1, truncated, DHFR fusion (Arabidopsis thaliana); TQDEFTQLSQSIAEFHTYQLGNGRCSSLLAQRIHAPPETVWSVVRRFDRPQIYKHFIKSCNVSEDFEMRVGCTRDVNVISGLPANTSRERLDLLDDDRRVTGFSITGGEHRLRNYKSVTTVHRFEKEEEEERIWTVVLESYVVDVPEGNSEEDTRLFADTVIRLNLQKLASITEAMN; partner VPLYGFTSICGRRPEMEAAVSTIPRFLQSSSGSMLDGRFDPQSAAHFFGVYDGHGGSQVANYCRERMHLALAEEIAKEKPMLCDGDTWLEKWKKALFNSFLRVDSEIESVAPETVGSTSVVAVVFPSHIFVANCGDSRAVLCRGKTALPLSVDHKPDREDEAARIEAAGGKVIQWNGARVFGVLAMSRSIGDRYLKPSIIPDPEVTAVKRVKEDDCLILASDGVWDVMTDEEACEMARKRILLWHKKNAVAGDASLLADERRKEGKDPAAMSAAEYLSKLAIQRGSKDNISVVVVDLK
Change,relative binding score [%]
N177R,72.4
S80V,-4.26
Q7E,93.9
V40Y,2.71
R123L,86
D144Y,12.8
F124C,90.3
S42L,63.9
I79V,89.1
D97W,57.3
F103Y,84.1
E151G,77.2
R45H,14.3
S42N,91.5
L8I,63.4
R74S,-9.2
C72A,89.7
T39K,88
T120D,-1.58

# Study 4 — method: universal PBM; molecule type: double-stranded DNA, one strand shown; sample: in vitro; tested at: 600 nM; direction: higher = stronger binding
# Target: Sal-like protein 4, full length isoform A (SALL4, Homo sapiens, UniProt Q9UJQ4, residues 1-1053)
# UniProt Q9UJQ4, sequence (whole entry, looked up): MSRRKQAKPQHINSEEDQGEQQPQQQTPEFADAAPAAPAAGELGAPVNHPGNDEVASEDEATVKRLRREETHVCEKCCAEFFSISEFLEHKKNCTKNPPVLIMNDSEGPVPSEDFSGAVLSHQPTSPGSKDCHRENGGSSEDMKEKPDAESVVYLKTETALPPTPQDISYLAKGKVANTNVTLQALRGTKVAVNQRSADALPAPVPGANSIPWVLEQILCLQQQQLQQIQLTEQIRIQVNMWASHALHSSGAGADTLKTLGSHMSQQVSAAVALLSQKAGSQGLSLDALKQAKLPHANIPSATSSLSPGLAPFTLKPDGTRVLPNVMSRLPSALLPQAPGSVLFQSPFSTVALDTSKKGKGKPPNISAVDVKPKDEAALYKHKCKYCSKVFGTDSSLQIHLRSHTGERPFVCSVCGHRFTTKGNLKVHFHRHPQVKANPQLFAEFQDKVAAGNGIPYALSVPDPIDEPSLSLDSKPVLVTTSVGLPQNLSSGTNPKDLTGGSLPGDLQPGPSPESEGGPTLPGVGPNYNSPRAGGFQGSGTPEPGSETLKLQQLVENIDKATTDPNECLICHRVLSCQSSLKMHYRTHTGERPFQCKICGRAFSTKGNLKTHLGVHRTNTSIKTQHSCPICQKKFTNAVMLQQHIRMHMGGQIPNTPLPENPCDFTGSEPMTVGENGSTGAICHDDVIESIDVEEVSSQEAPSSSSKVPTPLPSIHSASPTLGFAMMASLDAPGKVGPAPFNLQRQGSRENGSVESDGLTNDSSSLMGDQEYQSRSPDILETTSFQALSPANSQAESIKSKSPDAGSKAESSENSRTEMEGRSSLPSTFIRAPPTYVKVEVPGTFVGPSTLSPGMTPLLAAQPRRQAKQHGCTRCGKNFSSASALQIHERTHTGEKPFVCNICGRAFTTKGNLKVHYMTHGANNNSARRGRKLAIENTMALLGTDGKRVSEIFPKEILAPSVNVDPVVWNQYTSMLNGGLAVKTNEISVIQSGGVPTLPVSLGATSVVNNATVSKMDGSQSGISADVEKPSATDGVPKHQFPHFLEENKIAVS
# Setting: 8-mer, flanks averaged, mean of replicates
Strand,E-score
CCTGGTAG,-0.343
ATGGAGGG,-0.116
GCAGCAGC,-0.214
GTCTTCTA,0.105
GCAATAGC,-0.078
GTTGATAA,0.335
ATTAAGGC,0.115
CGTCGACC,-0.163
TACTTTCA,0.235
ACTAAACT,0.132
CGACTAGC,-0.111
CATGCTCG,-0.0477
CTAATCCA,0.102
AAACCCGA,0.143
AAGCCCGG,-0.35
AAACCGCA,-0.243
ATCATGAG,0.0959
GATTTCCA,-0.0317
ATTCTTTA,0.264
CTGTCAGC,-0.143
AGTGTAAC,0.0215
ATGTTCCA,-0.00758
CTGGTGAA,-0.103
CCGCTAAC,-0.212
TAGACGGA,0.0323

# Study 5 — method: protein binding microarray; molecule type: double-stranded DNA, one strand shown; sample: in vitro; tested at: not given; baseline: not given; direction: higher = stronger binding
# Target: Histone acetyltransferase KAT6A, both winged helices, GST fusion (KAT6A, Homo sapiens, UniProt Q92794, residues 1-181)
# Setting: 8-mer, flanks averaged, mean of 2 arrays, mostly near background
# Residues (chain): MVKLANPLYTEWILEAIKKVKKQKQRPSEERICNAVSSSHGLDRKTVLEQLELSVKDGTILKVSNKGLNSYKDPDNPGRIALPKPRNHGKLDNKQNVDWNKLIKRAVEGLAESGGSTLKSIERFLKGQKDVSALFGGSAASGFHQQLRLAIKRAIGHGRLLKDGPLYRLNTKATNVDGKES
Strand,E-score
GTGGTTGA,0.00845
GTCAAGAA,-0.147
GTGTTTAA,-0.00248
AGGTGGAG,-0.257
TCCCTAAA,-0.23
AGGATATA,-0.15
ACAAGAAG,-0.0973
CAAACCTC,-0.255
AGACTCCA,-0.198
ATCTACTG,-0.098
ATCAATGA,0.0148
CCGGCCTC,0.126
ACTAGAGA,-0.151
ACATCTTG,-0.196
AAGGCGTA,-0.136
AGCATAGC,-0.0566
ACGCTCAC,0.197
ATGGTGAA,-0.0963
ACCAATAC,-0.00888
TCAGTAGA,-0.0584
CGATTTCA,0.0486
GCCAGCGC,0.258
TCGCATCA,0.123
CGAAGCAA,0.0299
CGTGCCAG,-0.0227

# A few entries again (study 3):
Change,relative binding score [%]
R74S,-9.2
R45H,14.3
S42L,63.9
L8I,63.4
D97W,57.3
T120D,-1.58
T39K,88
S42N,91.5
I79V,89.1
F124C,90.3
E151G,77.2
F103Y,84.1
V40Y,2.71
R123L,86
D144Y,12.8
